{"data": "Results pooled from the literature", "note": "Compare with care: the assays were run in different laboratories. ± gives the spread as reported.", "sequence of UniProt O60656 (whole entry, looked up)": "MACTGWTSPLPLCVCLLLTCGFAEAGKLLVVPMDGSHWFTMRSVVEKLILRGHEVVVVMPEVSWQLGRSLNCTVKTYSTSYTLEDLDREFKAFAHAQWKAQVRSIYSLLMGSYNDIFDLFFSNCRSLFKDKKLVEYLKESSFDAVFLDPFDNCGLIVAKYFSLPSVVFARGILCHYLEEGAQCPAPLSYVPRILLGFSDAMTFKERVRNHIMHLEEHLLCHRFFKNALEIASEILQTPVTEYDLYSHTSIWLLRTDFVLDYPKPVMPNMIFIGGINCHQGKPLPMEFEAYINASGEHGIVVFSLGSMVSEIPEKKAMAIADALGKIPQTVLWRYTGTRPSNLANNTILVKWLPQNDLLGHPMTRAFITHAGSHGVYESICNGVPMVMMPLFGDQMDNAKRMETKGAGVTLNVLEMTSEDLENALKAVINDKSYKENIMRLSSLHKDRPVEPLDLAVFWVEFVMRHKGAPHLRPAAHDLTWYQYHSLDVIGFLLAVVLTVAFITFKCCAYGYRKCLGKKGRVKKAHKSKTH"}
{"Molecule": "CC1=C(CO)C(=O)O[C@@H]([C@@H](C)[C@H]2CC[C@H]3[C@@H]4C[C@H]5O[C@]56[C@@H](O)C=CC(=O)[C@]6(CO)[C@H]4CC[C@]23C)C1", "target or system": "JMAR HNSCC", "assay": "cell viability, MTS", "measurement": "IC50", "result": "5.1 ± 0.23 µM"}
{"Molecule": "O=C(/C=C/c1ccc(Cn2cc(Cn3cnc4cc(F)ccc4c3=O)nn2)cc1)NO", "target or system": "MRC5", "assay": "cell growth or viability, MTT", "conditions": "48 h", "measurement": "IC50", "result": "15 µM"}
{"Molecule": "C=CC(C)(C)c1cc(-c2oc3cc(O)ccc3c2Cc2cc(-c3cc4cc(C(C)(C)C=C)c(O)cc4oc3=O)c(O)cc2O)c(O)cc1O", "target or system": "HT-29", "assay": "cell growth or viability", "measurement": "IC50", "result": "4.5 µM"}
{"Molecule": "Cc1ccc2ncn(Cc3cn(Cc4ccc(/C=C/C(=O)NO)cc4)nn3)c(=O)c2c1", "target or system": "MRC5", "assay": "cell growth or viability, MTT", "conditions": "48 h", "measurement": "IC50", "result": "26.7 µM"}
{"Molecule": "C=C(C)C(=O)O[C@H]1C[C@@]2(C)OC(=CC2=O)C(=C)[C@H](O)[C@H]2OC(=O)C(=C)[C@@H]21", "target or system": "HT-29", "assay": "cytotoxicity", "measurement": "IC50", "result": "0.28 µM"}
{"Molecule": "O=C(/C=C/c1ccc(Cn2cc(Cn3cnc4ccc(F)cc4c3=O)nn2)cc1)NO", "target or system": "MRC5", "assay": "cell growth or viability, MTT", "conditions": "48 h", "measurement": "IC50", "result": "12.6 µM"}
{"Molecule": "C=CC(C)(C)c1cc2cc(-c3ccc(O)cc3O)c(=O)oc2cc1O", "target or system": "HT-29", "assay": "cell growth or viability", "measurement": "IC50", "result": "> 10 µM"}
{"Molecule": "C=C1C(=O)O[C@@H]2/C=C(/C)C3=CC(=O)[C@@](C)(C[C@H](OC(=O)C(C)C)[C@@H]12)O3", "target or system": "HT-29", "assay": "cytotoxicity", "measurement": "IC50", "result": "0.58 µM"}
{"Molecule": "CCN(CC)Cc1cc(Nc2ccnc3cc(Cl)ccc23)ccc1O", "target or system": "HepG2 overexpressing CYP2C8", "assay": "cell viability, MTT", "conditions": "48 h", "measurement": "IC50", "result": "11.6 µM"}
{"Molecule": "C=CC(C)(C)c1cc2c(cc1O)OC[C@H](c1cc(-c3oc4cc(O)ccc4c3C(=O)c3cc(C(C)(C)C=C)c(O)cc3O)c(O)cc1O)C2", "target or system": "HT-29", "assay": "cell growth or viability", "measurement": "IC50", "result": "4.2 µM"}
{"Molecule": "O=C1NCCc2c(OCCCCN3CCCCC3)cccc21", "target or system": "HeLa", "assay": "cell viability, CCK-8", "conditions": "11 h", "measurement": "IC50", "result": "> 150 µM"}
{"Molecule": "UGT1A9 (Homo sapiens, UniProt O60656)", "target or system": "O=C(c1ccccc1)c1ccc(O)cc1", "assay": "steady-state kinetics", "conditions": "pH 7.4, 37 °C", "measurement": "Km", "result": "35.9 µM"}
{"Molecule": "COc1ccc(/C=C/C(=O)C(=CC2=CC=C[CH]2[Fe][CH]2C=CC=C2)C(=O)/C=C/c2ccc(OC)c(OC)c2)cc1OC (stereo not drawn)", "target or system": "NCM460", "assay": "cytotoxicity, MTT", "measurement": "IC50", "result": "929 µM"}
{"Molecule": "O=C(NO)c1ccc(Cn2cc(Cn3cnc4ccc(Br)cc4c3=O)nn2)cc1", "target or system": "MRC5", "assay": "cell growth or viability, MTT", "conditions": "48 h", "measurement": "IC50", "result": "44.9 µM"}
{"Molecule": "C=C(C)C(=O)O[C@H]1C[C@@]2(C)OC(=CC2=O)/C(CO)=C\\[C@H]2OC(=O)C(=C)[C@H]12", "target or system": "HT-29", "assay": "cytotoxicity", "measurement": "IC50", "result": "0.56 µM"}
{"Molecule": "CC1(C)c2cc3cc(-c4ccc(O)cc4O)c(=O)oc3cc2OC1CO (stereo not drawn)", "target or system": "HT-29", "assay": "cell growth or viability", "measurement": "IC50", "result": "> 10 µM"}
{"Molecule": "Cc1ccc2ncn(Cc3cn(Cc4ccc(C(=O)NO)cc4)nn3)c(=O)c2c1", "target or system": "MRC5", "assay": "cell growth or viability, MTT", "conditions": "48 h", "measurement": "IC50", "result": "166 µM"}
{"Molecule": "dolastatin 16", "target or system": "HeLa", "assay": "cell viability, MTT", "conditions": "48 h", "measurement": "IC50", "result": "58 µM"}
{"note": "A few entries again:"}
{"Molecule": "O=C1NCCc2c(OCCCCN3CCCCC3)cccc21", "target or system": "HeLa", "assay": "cell viability, CCK-8", "conditions": "11 h", "measurement": "IC50", "result": "> 150 µM"}
{"Molecule": "UGT1A9 (Homo sapiens, UniProt O60656)", "target or system": "O=C(c1ccccc1)c1ccc(O)cc1", "assay": "steady-state kinetics", "conditions": "pH 7.4, 37 °C", "measurement": "Km", "result": "35.9 µM"}
